Assay results of several laboratories.
Compare with care: the assays were run in different laboratories. Several values in a cell are separate wells, animals, samples, runs or records. ± marks the error that the study gave.
Cell line: HEK293

| SMILES | assay | system | setting | how to read | quantity | value |
| --- | --- | --- | --- | --- | --- | --- |
| N.N.[Cl][Pt][Cl] | cell growth, MTT |  | 48 h, LED photolysed 1 h |  | IC50 | 17600 ± 2870 nM |
| Clc1cccc(-c2c[nH]c3nccc(N4CCOCC4)c23)c1 | reporter gene, 8xGTIIC luciferase |  | 10 µM, 48 h | reference: DMSO | YAP/TAZ-TEAD reporter activity | increased |
| COc1cc2c(O)c3c(c(-c4ccc5c(c4)OCO5)c2cc1OC)C(=O)N(N)C3 | endosomal acidification |  | 4 h |  | IC50 | 9060 ± 893 nM |
| C[C@@H]1C[C@@H]([C@H](O)CC2CC(=O)NC(=O)C2)C(=O)[C@@H](C)C1 | protein secretion |  | concentration not given, unit not given | reference: mock | secreted Gaussia luciferase | 0.0927 |
| CCOC(=O)CN1CCN(CCCOc2c3c(c(-c4ccc5c(c4)OCO5)c4cc(OC)c(OC)cc24)C(=O)OC3)CC1 | endosomal acidification |  |  |  | IC50 | 172 ± 40.6 nM |
| CC(CO)CN(C)c1ncnc2[nH]cc(-c3cccc(Cl)c3)c12 (stereo not shown) | Western blot, measured: MOB1 phospho-Thr35 |  | 10 µM, 4 h, added: H2O2 50 µM for 2 h | reference: DMSO | phosphorylated MOB1 level | decreased |
| C/C=C(/C)C(=O)O[C@H]1C(C)=C2[C@H]([C@@H]1OC(=O)CCCCCCC)[C@@](C)(OC(C)=O)C[C@H](OC(=O)CCC)[C@@]1(O)[C@H]2OC(=O)[C@@]1(C)O | western blot |  | 3 µM, 6 h, unit not given | reference: mock | BiP protein level | 2.04 and 2.27 and 1.68 and 1.61 and 1.73 and 1.47 |
| COc1c(C)c2c(c(O)c1C/C=C(\C)CCC(=O)O)C(=O)OC2 | cell proliferation | kidney cancer |  |  | IC50 | 347 nM |
| Fc1cccc(-c2c[nH]c3ncnc(N4CCOCC4)c23)c1 | reporter gene, 8xGTIIC luciferase |  | 10 µM, 48 h | reference: DMSO | YAP/TAZ-TEAD reporter activity | increased |
| O[C@@H](c1cc(C(F)(F)F)nc2c(C(F)(F)F)cccc12)[C@H]1CCCCN1 | MTT |  |  | reference: CC50 over IC50 | selectivity index | 498 |
| COc1cc2c(O)c3c(c(-c4ccc5c(c4)OCO5)c2cc1OC)C(=O)OC3 | endosomal acidification |  |  |  | IC50 | 476 ± 60.1 nM |
| Cc1ccc2c(c1C)NC(=O)[C@]21NN=C(c2ccccc2)S1 | MTT |  |  | reference: CC50 over IC50 | selectivity index | 105 |
| CCOc1c2c(c(-c3ccc4c(c3)OCO4)c3cc(OC)c(OC)cc13)C(=O)OC2 | endosomal acidification |  |  |  | IC50 | 254 ± 49 nM |
